Results from different studies.
Each line is one published result; not all experiments were run side by side. “And” joins repeats or separate records; there may be more than shown. ± marks the error that the study gave.

Molecule | cell line | test | system | setting | how to read | quantity | value
COC1=CC(c2cc3ccccc3[nH]2)=N/C1=C\c1[nH]c(C)cc1C | NIH3T3 in PANC/NIH microtissues | fibroblast toxicity | – | 168 h, chronic toxicity, unit not given | reference: AC50 ATP over AC50 NanoLUC, day 7 | therapeutic window | 3.88
C=CCc1ccc(O)c(OC)c1 | mES-D3 cell | cardiomyocyte differentiation, RT-PCR, refers to: MHC | – | 240 h | – | ID50 | 5.43 ± 0.715 µg/mL
Nc1nc(F)nc2c1ncn2[C@@H]1O[C@H](CO)[C@@H](O)[C@@H]1O | RS4-11 | – | – | 72 h, with: cytotoxic drug | below 1 means synergy | combination index | 0.85 ± 0.11
Oc1c2ccccc2c2c3c(cccc13)N=N2 | Drx-KOR cells co-expressing OX1R | dynorphin-induced β-arrestin recruitment, inhibitor, PathHunter | – | 20 µM, 18 h, with: dynorphin for 90 min | – | OX1R-enhanced β-arrestin recruitment | inhibited
CCN(CC)c1ccc(C2Nc3ccc(Cl)cc3NC3=C2C(=O)CC(C)(C)C3)cc1 (stereo not shown) | H4 | cytoprotection | – | with: thapsigargin 7.5 µM | – | EC50 | > 50 µM
COCn1c(-c2ccccc2)cc2ccccc21 | HEK293 NF-κB luciferase reporter | reporter gene, refers to: NF-κB | – | 50 µM, 6 h, with: TNFα | – | inhibition | 21.5 ± 3.3%
Ac-GRPCA-NH2 (N-acetyl, C-amide) | GM7373 bovine endothelial | cell proliferation, inhibitor | peptide | 24 h, with: 0.55 nM FGF2, 0.4% FCS | – | ID50 | 15 µM
CCCCN(CCCC)c1ccc(C2Nc3ccc(-c4ccccc4)cc3NC3=C2C(=O)CC(C)(C)C3)cc1 (stereo not shown) | H4 | cytoprotection | – | with: thapsigargin 7.5 µM | – | EC50 | > 50 µM
RXRRXRRXRRXRXB (PMO conjugate) | pLuc705 cells | flow cytometry | peptide | 2 µM, 24 h, 10% serum, unit not given | higher = more uptake | cellular uptake | 92
COC[C@H]1OC(=O)c2coc3c2[C@@]1(C)C1=C(C3=O)[C@@H]2CCC(=O)[C@@]2(C)C[C@H]1OC(C)=O | LNCaP expressing Abi1 Y213F | – | – | 0.2 µM, 2 h, with: 10 ng/mL PDGF | – | macropinocytic uptake | inhibited
C/C(=N\N=C1/NC(=O)C(C)S1)c1ccccn1 (stereo not shown) | Vero | cell growth or viability, SRB | – | 100 µg/mL, 48 h | – | inhibition | 69.7%
Brc1ccc(-c2cc3ccccc3[nH]2)cc1 | HEK293 | cell growth or viability | – | 50 µM | – | viability | 86.7%
COc1cccc(-c2cc(=O)c3ccccc3o2)c1N | NRK-52E | immunofluorescence imaging | – | 1 µM, with: MGA | reference: control | cell area | 149 ± 12%
COc1ccc(C(=O)Nc2ccc(N3CCN(c4ccc(OC)cc4)CC3)cc2C(=O)O)cc1 | CHO-K1 | cell growth | – | concentration not given, with: DFMO at IC50 + spermidine 1 µM | – | activity | inactive
COc1cccc2c1C(=O)c1c(O)c3c(c(O)c1C2=O)C[C@@](O)(C(=O)CO)C[C@@H]3O[C@H]1C[C@H](N)[C@H](O)[C@H](C)O1 | KB-V1 multidrug-resistant | flow cytometry | – | 5 µM, 2 h plus 2 h washout | – | drug effluxed | ~80%
C/C(=N\NC(N)=S)c1ccccn1 | Vero | cell growth or viability, SRB | – | 100 µg/mL, 48 h | – | inhibition | 61.2%
Clc1ccc2cc(-c3ccccc3)[nH]c2c1 | HEK293 NF-κB luciferase reporter | reporter gene, refers to: NF-κB | – | 50 µM, 6 h, with: TNFα | – | inhibition | 91.5 ± 1.2%
Ac-ARPCG-NH2 (N-acetyl, C-amide) | GM7373 bovine endothelial | cell proliferation, inhibitor | peptide | 24 h, with: 0.55 nM FGF2, 0.4% FCS | – | ID50 | > 1000 µM
TAGSCLRKFSTM | bovine aortic endothelial cells | – | peptide, NC1 domain-coated plate | 2 µg/mL, 60 min, 37 °C | reference: no inhibitor | cell adhesion | ~50%
Cc1ccc(C(=O)NCc2ccsc2)cc1C#Cc1cn(C(C)C)c2ncnc(N)c12 | U-118-MG | cell growth or viability | – | – | – | GI50 | > 1 µM
Cc1ccc(-c2cc3ccccc3[nH]2)cc1 | HEK293 NF-κB luciferase reporter | reporter gene, refers to: NF-κB | – | 50 µM, 6 h, with: TNFα | – | inhibition | 96.6 ± 0.6%
CCN1C(=O)C(C(C)=O)S/C1=N/N=C(\C)c1ccccn1 (stereo not shown) | Vero | cell growth or viability, SRB | – | 100 µg/mL, 48 h | – | inhibition | 50.3%
LRRFSTMPFAFININNVINF | HUVEC | cell proliferation, WST-1 | peptide | 100 µM, 72 h | reference: vehicle | inhibition | 46.6 ± 4.23%

Molecule | cell line | test | system | setting | how to read | quantity | value
CC(C)=CCn1c(-c2ccccc2)cc2ccccc21 | HEK293 NF-κB luciferase reporter | reporter gene, refers to: NF-κB | – | 50 µM, 6 h, with: TNFα | – | inhibition | 47 ± 2.7%
CN(C)c1ccc(C2Nc3ccc(-c4ccccc4)cc3NC3=C2C(=O)CC(C)(C)C3)cc1 (stereo not shown) | H4 | cytoprotection | – | with: thapsigargin 7.5 µM | – | EC50 | 14.3 ± 0.31 µM
H-ARPCA-NH2 (C-amide) | GM7373 bovine endothelial | cell proliferation, inhibitor | peptide | 24 h, with: 0.55 nM FGF2, 0.4% FCS | – | ID50 | 500 µM
COc1cc(N2CCC(N3CCN(C)CC3)CC2)ccc1Nc1ncc(Cl)c(Nc2ccccc2S(=O)(=O)C(C)C)n1 | NIH3T3 in PANC/NIH microtissues | fibroblast toxicity | – | 168 h, chronic toxicity, unit not given | reference: AC50 ATP over AC50 NanoLUC, day 7 | therapeutic window | 2.47
exonuclease 1 (human) | NIH3T3 | confocal microscopy, refers to: YFP-tagged compound | – | concentration not given, PCNA replication foci, with: co-transfected CFP-PCNA | – | cells with mid S-phase foci | 14%
C=C(C[C@H](N)C(=O)O)C(=O)Nc1ccc(Cl)cc1 | MCF7 cells | cell growth inhibition | – | 72 h | reference: vehicle | lowest significantly active concentration | 320 µM
Nc1cccc(-c2cc3ccccc3[nH]2)c1 | HEK293 | cell growth or viability | – | 50 µM | – | viability | 70.7%
C#C[C@@]1(O)[C@@H](CO)O[C@@H](n2cc(I)c3c(N)ncnc32)[C@@H]1O | CCRF-CEM | cell growth or viability, SRB | – | 48 h | – | GI50 | 0.272 µM
RBRBRBRBRBRBRBRBB (PMO conjugate) | pLuc705 cells | flow cytometry | peptide | 2 µM, 24 h, 10% serum, unit not given | higher = more uptake | cellular uptake | 111
Cc1ccccc1-c1cc2ccccc2[nH]1 | HEK293 NF-κB luciferase reporter | reporter gene, refers to: NF-κB | – | 50 µM, 6 h, with: TNFα | – | inhibition | 0%
COc1ccc(C[C@]2(O)COc3cc(O)cc(O)c3C2=O)cc1 | Y79 | cell growth or viability, resazurin | – | 48 h | – | GI50 | > 100 µM
Ac-ARACA-NH2 (N-acetyl, C-amide) | GM7373 bovine endothelial | cell proliferation, inhibitor | peptide | 24 h, with: 0.55 nM FGF2, 0.4% FCS | – | ID50 | > 1000 µM
O=C(/C=C/c1cccs1)Nc1scc(-c2ccccc2)c1C(=O)O | normal human fibroblasts | refers to: MBNL1-independent exons | – | up to 500 µM, 48 h | – | alternative splicing | no effect
c1ccc(C2Cc3ccccc3N2)cc1 (stereo not shown) | HEK293 | cell growth or viability | – | 50 µM | – | viability | 87.9%
C[C@H](C(=O)Oc1ccc(-c2cc(=S)ss2)cc1)c1ccc2cc(OC(=O)CCCO[N+](=O)[O-])ccc2c1 | IMR-90 and cancer cell lines | cell growth | – | 24 h | reference: IMR-90 over cancer cells | IC50 ratio | 70 to 270 fold
COc1ccc(C(C)=NNC(=O)COc2ccc3c(C)cc(=O)oc3c2C)cc1OC | LPS-stimulated human macrophages | ELISA | conditioned medium | 5.3 µmol/mL, 48 h | reference: dexamethasone, reduction | IL-6 level | 1.2 fold
Nc1ncnc2c1nc(Sc1ccc(Cl)cc1)n2[C@@H]1O[C@@H]2COP(=O)(O)O[C@H]2[C@H]1O | CHO-K1 | fluorescein-WGA ratio imaging | – | concentration not given, 37 °C, medium pH 7.4 | – | cell surface pH | 6.9
C[C@H](O)c1cccc(NC(=O)c2nn(Cc3ccc(F)cc3)c3c2CN(C(=O)c2ccc[nH]2)C[C@H]3C)c1 | IDH1 R132G mutant AML cells | – | – | concentration not given, IDH1/2 mutant hypermethylation signature | – | hypomethylated signature CpGs | ~70%
C#C[C@@]1(O)[C@@H](CO)O[C@@H](n2cc(Cl)c3c(N)ncnc32)[C@@H]1O | SR | cell growth or viability, SRB | – | 48 h | – | GI50 | 0.074 µM
CSVTCR | bovine aortic endothelial cells | – | peptide | 2 µg coated per well, 30 to 60 min | reference: thrombospondin-coated wells | adherent cells | 99%
CC1(C)CC(=O)C2=C(C1)Nc1cc(Br)ccc1NC2c1ccc(N2CCCCC2)cc1 (stereo not shown) | H4 | cytoprotection | – | with: thapsigargin 7.5 µM | – | EC50 | 26.3 ± 1.34 µM
CSVTCG | bovine aortic endothelial cells | – | peptide | 2 µg coated per well, 30 to 60 min | reference: thrombospondin-coated wells | adherent cells | 49% and 80%
Ac-PARAC-NH2 (N-acetyl, C-amide) | GM7373 bovine endothelial | cell proliferation, inhibitor | peptide | 24 h, with: 0.55 nM FGF2, 0.4% FCS | – | ID50 | > 1000 µM

A few entries again:
Molecule | cell line | test | system | setting | how to read | quantity | value
Nc1nc(F)nc2c1ncn2[C@@H]1O[C@H](CO)[C@@H](O)[C@@H]1O | RS4-11 | – | – | 72 h, with: cytotoxic drug | below 1 means synergy | combination index | 0.85 ± 0.11
Oc1c2ccccc2c2c3c(cccc13)N=N2 | Drx-KOR cells co-expressing OX1R | dynorphin-induced β-arrestin recruitment, inhibitor, PathHunter | – | 20 µM, 18 h, with: dynorphin for 90 min | – | OX1R-enhanced β-arrestin recruitment | inhibited
CCN(CC)c1ccc(C2Nc3ccc(Cl)cc3NC3=C2C(=O)CC(C)(C)C3)cc1 (stereo not shown) | H4 | cytoprotection | – | with: thapsigargin 7.5 µM | – | EC50 | > 50 µM
